# Experimental data from different studies.
# Compare with care: the assays were run in different laboratories.
# Target: Serine/threonine-protein kinase ICK (CILK1, Homo sapiens, UniProt Q9UPZ9)
SMILES,assay,setting,scale,quantity,value
CN1CCN(Cc2ccc(-c3ccc(CO[C@H]4CCC[C@@H]4NC(=O)c4cc(-c5cnn(C)c5)cnc4N)cc3)cc2)CC1,"enzyme activity, inhibitor",0.1 µM,,inhibition,2%
Nc1ncc2c(n1)-c1c([nH]c3ccc(C4=CCOCC4)cc13)CCC2,"binding, competition with immobilised ligand",1 µM,,remaining binding,86%
CCN1CCN(Cc2ccc(C(=O)Nc3ccc(C)c(NCc4cnc5[nH]ccc5c4OC)c3)cc2C(F)(F)F)CC1,"binding, competition with immobilised ligand",1 µM,,remaining binding,54%
CNC(=O)C1CCN(c2cc(C)c(F)cc2NC(=O)c2ccc(-c3cc(O)ccc3C)c(C)c2)CC1,"binding, competition with immobilised ligand",1 µM,,remaining binding,100%
C=CC(=O)N1Cc2nc(-c3cc(-c4cc(Cl)cnc4Cl)c(F)cc3F)n(-c3ccncn3)c2C1,"cell-free assay, inhibitor",1 µM,,inhibition,0.4%
CN1CC[C@@H](COc2cnc(C#N)cc2-c2ccn3nc(NC(=O)C4CC4)cc3c2)C1,"enzyme activity, inhibitor",1 µM,,inhibition,8%
C=CC(=O)N1CCc2ccc(-n3c(=O)ccc4cnc5ccc(-c6cnn(C)c6)cc5c43)cc21,KINOMEscan,1 µM,reference: DMSO control,remaining binding,100%
CNC1C[S+]2CC[S+]3CC[S+](C1)[Ru-4]321([N]=C=S)[n]2c3ccc(OC)cc3c3c4c(c5cc(F)c[n+]1c5c32)C(=O)NC4=O (stereo not shown),KinomeScan,0.1 µM,reference: untreated,remaining binding,71%
O=C(Nc1cc(-c2ccnc3[nH]ccc23)c(Cl)cn1)[C@H]1CCC[C@@H](NC(=O)C(F)(F)F)C1,"binding, competition with immobilised ligand",0.1 µM,,remaining binding,21%
Cc1cnc2nc1Nc1cccc(c1)COC/C=C/COCc1cc(ccc1OCCN1CCOCC1)N2,binding,0.1 µM,,remaining binding,85%
NC(=O)[C@@H](O)C[C@H]1CCc2sc3ncnc(O[C@H]4CC[C@H](N5CCOCC5)CC4)c3c21,"enzyme activity, inhibitor",10 µM,,inhibition,14%
O=C(Cc1ccc(OCc2ccccc2)cc1)NC1(C(=O)O)CCN(C(=O)c2ccc(-c3cccc(Cl)c3)cc2)CC1,"enzyme activity, inhibitor",10 µM,,activity vs control,125%
CC(C)=CC1OC(C)(C)C2C=C3C(=O)C(Cl)=CC(O)C3C3C(O)C4OC4C(=O)C132 (stereo not shown),"cell-free assay, competition with immobilised ligand",10 µM,,remaining binding,79%
COc1c(Cl)cccc1Nc1c(-c2ccncc2C#C[C@@]2(C)CCCN2C(=O)/C=C/CN(C)C)[nH]c2c1C(=O)NCC2,"binding, competition with immobilised ligand",3 µM,,remaining binding,64%
Cc1ccc(-c2c(/C=C(\C#N)C(=O)NC(C)C)n(CCCO)c3ncnc(N)c23)cc1,"cell-free assay, competition with immobilised ligand",1 µM,,remaining binding,100%
CCn1cc(C(=O)O)c(=O)c2c(N)c(F)c(NC3CCCCC3)cc21,kinase activity,"0.1 µM, added: ATP at Km",,inhibition,4.6%
NC(=O)C[C@H]1CCc2sc3ncnc(O[C@H]4CC[C@H](N5CCOCC5)CC4)c3c21,"enzyme activity, inhibitor",10 µM,,inhibition,2%
COc1cc(Nc2nccc(-c3cnn4nc(OC)ccc34)n2)cc(C(F)(F)F)c1,"binding, competition with immobilised ligand",1 µM,,remaining binding,100%
Nc1ncc(-c2cc(-c3cnn(CC(F)(F)F)c3)ncc2F)nc1C(=O)NC1CNCC(F)C1 (stereo not shown),enzyme activity,1 µM,reference: DMSO control,remaining activity,94%

# A few entries again:
SMILES,assay,setting,scale,quantity,value
CC(C)=CC1OC(C)(C)C2C=C3C(=O)C(Cl)=CC(O)C3C3C(O)C4OC4C(=O)C132 (stereo not shown),"cell-free assay, competition with immobilised ligand",10 µM,,remaining binding,79%
COc1c(Cl)cccc1Nc1c(-c2ccncc2C#C[C@@]2(C)CCCN2C(=O)/C=C/CN(C)C)[nH]c2c1C(=O)NCC2,"binding, competition with immobilised ligand",3 µM,,remaining binding,64%
Cc1ccc(-c2c(/C=C(\C#N)C(=O)NC(C)C)n(CCCO)c3ncnc(N)c23)cc1,"cell-free assay, competition with immobilised ligand",1 µM,,remaining binding,100%
